Results pooled from the literature.
Numbered parts are unrelated; each lists some results of a single study. Positions count from the first letter of the parent shown.

Series 1 — target: CCNB1, cyclin fold, Cln2 fusion (human); method: yeast growth competition, sequencing; sample: yeast; notes: weak parent motif; reference: not given; direction: higher = stronger binding; endpoint: normalised enrichment score
Starting sequence: RBL1 docking peptide (human); GSAKRRLFGEDPP
R5N: 0.343
R5W: -0.159
K4S: 0.554
L7W: 1.4
G1R: 0.841
R5C: 0.41
R5K: 0.788
A3C: 1.35
A3S: -0.311
P12G: 0.68
S2N: 0.784
E10M: 0.441
R6N: 0.532
G1E: 0.241
D11Y: 1.25
A3E: 0.888

Series 2 — method: protein-binding microarray; form: double-stranded DNA, one strand shown; sample: in vitro; concentration: 2540 nM top; notes: 60-bp whole probe; with: salmon DNA 0.4 mg/ml; reference: random background probes; direction: higher = stronger binding; endpoint: fitted relative affinity; shared flanks, not repeated: GCCTAGCAC … GTCTTGATTCGCTTGACGCTGCTG
Target: Interferon regulatory factor 3, full length, phosphomimetic (IRF3, Homo sapiens, UniProt Q14653, residues 1-427, S386D/S396D/S398D/S402D/T404D/S405D)
Target sequence (chain): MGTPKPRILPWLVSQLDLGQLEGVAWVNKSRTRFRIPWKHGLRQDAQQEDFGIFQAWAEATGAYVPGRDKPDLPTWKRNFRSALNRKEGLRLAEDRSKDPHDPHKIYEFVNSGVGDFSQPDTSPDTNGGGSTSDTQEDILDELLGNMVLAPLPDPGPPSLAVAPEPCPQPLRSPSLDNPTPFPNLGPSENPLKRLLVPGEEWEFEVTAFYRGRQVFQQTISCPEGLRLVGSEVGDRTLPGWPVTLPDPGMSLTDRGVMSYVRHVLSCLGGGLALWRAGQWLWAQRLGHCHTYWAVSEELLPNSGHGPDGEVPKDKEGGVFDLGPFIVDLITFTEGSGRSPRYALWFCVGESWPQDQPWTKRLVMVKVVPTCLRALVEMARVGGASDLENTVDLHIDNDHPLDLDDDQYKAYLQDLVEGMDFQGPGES
GACGATATCAGTCCCGAGACGTGCTAG: 0.223 z-score
TACGGTATCGGTCTCGGGACGTGCTAG: 4.33 z-score
GACGATATCAGTATCCAGACGTGCTAG: 2.01 z-score
GTGACTCTGAACCTTCAGCTCGTGCTA: -0.447 z-score
TCAAGTTTTCCTTCATGACTGTGCTAG: 2.48 z-score
GACGATCTCAGGCTGGAGACGTGCTAG: -0.0247 z-score
GACGAACTGAGACTGCAGACGTGCTAG: -0.354 z-score
GAGGGTATCGGGTATCGGGACGTGCTA: 0.598 z-score
GACGATTTCGGGACTGGCGACGTGCTA: 1.84 z-score
GTCGGTCTCCTACTGCTGACGTGCTAG: 2.51 z-score
TCATTACCGCATATCGGACTGTGCTAG: 0.606 z-score
GTCTTTGCAAAAGCTCCACCGTGCTAG: -0.199 z-score
TTAGAACTGAGAGTGGATTAGTGCTAG: -0.505 z-score
TTAGATTTGGGGACTGGATTAGTGCTA: -0.541 z-score
GACGCTATCGGGACTGGGGACGTGCTA: -0.104 z-score
GACGGACTGGACTAACGGGACGTGCTA: -0.514 z-score
TTAGGACTGGGTCTTGGTTAGTGCTAG: -0.925 z-score
GACGCTCTCAGACTGGAGACGTGCTAG: -0.196 z-score
TTAAATATCGGGACTGGATTAGTGCTA: 0.119 z-score

Series 3 — method: protein binding microarray; form: double-stranded DNA, one strand shown; sample: in vitro; concentration: not given; reference: not given; direction: higher = stronger binding; endpoint: E-score
Target: Histone acetyltransferase KAT6A, winged helix 1, GST fusion (KAT6A, Homo sapiens, UniProt Q92794, residues 1-85)
Notes: 8-mer, flanks averaged, mean of 2 arrays, mostly near background
Target sequence (chain): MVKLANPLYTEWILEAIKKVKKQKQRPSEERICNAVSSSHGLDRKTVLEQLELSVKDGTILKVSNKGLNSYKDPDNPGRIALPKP
GATACCCC: -0.0362
GGCGACCA: 0.199
ATGAACAC: -0.255
CGGCATAC: 0.336
CTCTGCGA: -0.0427
GTCGAAGA: -0.0854
CGCAGAAG: 0.0797
AAACTCAC: -0.11
CTGTTATC: -0.29
AGCTGTGA: -0.18
CAATACGC: 0.125
AAACCTAC: -0.175
GTACACAA: -0.092
ATAATTTA: 0.00903
AGCCCTAC: 0.0425
ACCTGGCT: -0.253
ACCGAAGT: -0.11
CAGCCCCA: -0.134
AAGTGGTG: -0.14
AGTGTGCA: -0.211
AATTACGC: 0.0757

Series 4 — target: NFIL3, bZIP domain (human); method: DHFR protein complementation; sample: yeast; reference: wild-type JUN-FOS pair; direction: higher = stronger binding; endpoint: binding fitness
Notes: single substitutions, most at no-binding floor
Starting sequence: JUN, bZIP domain (human); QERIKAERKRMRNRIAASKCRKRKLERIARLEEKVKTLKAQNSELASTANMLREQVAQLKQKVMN; partner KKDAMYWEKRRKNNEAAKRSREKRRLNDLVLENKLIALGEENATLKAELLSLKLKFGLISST
A46T: -1.37 natural log
K39F: -1.4 natural log
V35M: -1.13 natural log
N42K: -1.46 natural log
R53S: -1.59 natural log
E33T: -1.49 natural log
E33H: -1.51 natural log
K39N: -1.45 natural log
L52P: -1.53 natural log
R53A: -1.5 natural log
M51P: -1.49 natural log
L31Q: -1.57 natural log

Repeated from above (series 4):
V35M: -1.13 natural log
K39F: -1.4 natural log
N42K: -1.46 natural log
R53A: -1.5 natural log
E33H: -1.51 natural log
R53S: -1.59 natural log
L52P: -1.53 natural log
M51P: -1.49 natural log
K39N: -1.45 natural log
A46T: -1.37 natural log
L31Q: -1.57 natural log
